Assay results of several laboratories.
Numbers after ± are the reported error.
CYP2D6: Cytochrome P450 2D6 (CYP2D6, Homo sapiens, UniProt P10635)
Sequence of UniProt P10635 (whole entry, looked up): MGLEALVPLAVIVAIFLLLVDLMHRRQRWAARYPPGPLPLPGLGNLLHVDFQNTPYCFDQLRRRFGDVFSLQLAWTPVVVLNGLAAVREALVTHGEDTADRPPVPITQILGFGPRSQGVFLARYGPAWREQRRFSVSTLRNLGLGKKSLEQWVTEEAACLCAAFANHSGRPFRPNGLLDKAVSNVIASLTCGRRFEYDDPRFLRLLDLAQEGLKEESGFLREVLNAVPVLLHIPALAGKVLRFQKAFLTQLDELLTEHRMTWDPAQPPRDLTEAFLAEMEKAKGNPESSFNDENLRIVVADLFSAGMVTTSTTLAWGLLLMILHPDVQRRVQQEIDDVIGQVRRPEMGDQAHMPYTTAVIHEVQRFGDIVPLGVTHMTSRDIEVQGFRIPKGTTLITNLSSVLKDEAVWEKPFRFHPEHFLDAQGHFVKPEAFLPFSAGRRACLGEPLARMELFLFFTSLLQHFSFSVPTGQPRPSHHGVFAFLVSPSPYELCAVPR
Ahr: Aryl hydrocarbon receptor (Ahr, Mus musculus, UniProt P30561)
Sequence of UniProt P30561 (whole entry, looked up): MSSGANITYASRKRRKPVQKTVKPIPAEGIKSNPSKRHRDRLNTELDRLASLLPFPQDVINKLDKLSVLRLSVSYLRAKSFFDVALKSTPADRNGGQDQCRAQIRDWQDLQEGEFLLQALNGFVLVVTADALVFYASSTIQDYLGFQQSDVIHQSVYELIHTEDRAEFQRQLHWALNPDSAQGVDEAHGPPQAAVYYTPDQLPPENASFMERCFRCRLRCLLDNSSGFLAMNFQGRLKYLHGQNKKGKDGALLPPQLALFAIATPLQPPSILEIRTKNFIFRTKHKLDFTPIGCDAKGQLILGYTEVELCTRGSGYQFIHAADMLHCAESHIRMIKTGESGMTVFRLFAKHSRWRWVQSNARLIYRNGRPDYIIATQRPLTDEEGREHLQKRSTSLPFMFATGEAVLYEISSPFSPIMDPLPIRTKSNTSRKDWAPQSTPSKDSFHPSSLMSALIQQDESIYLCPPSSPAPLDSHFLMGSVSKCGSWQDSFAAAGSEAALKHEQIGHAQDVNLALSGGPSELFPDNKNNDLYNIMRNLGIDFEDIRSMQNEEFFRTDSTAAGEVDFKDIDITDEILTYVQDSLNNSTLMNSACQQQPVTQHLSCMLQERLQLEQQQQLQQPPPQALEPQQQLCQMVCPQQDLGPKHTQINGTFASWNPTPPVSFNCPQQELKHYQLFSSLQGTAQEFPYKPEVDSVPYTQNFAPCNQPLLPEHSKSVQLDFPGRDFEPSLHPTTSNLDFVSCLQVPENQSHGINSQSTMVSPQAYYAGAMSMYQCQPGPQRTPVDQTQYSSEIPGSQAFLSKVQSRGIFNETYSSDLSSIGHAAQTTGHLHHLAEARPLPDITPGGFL
CYP1B1: Cytochrome P450 1B1 (CYP1B1, Homo sapiens, UniProt Q16678)
Sequence of UniProt Q16678 (whole entry, looked up): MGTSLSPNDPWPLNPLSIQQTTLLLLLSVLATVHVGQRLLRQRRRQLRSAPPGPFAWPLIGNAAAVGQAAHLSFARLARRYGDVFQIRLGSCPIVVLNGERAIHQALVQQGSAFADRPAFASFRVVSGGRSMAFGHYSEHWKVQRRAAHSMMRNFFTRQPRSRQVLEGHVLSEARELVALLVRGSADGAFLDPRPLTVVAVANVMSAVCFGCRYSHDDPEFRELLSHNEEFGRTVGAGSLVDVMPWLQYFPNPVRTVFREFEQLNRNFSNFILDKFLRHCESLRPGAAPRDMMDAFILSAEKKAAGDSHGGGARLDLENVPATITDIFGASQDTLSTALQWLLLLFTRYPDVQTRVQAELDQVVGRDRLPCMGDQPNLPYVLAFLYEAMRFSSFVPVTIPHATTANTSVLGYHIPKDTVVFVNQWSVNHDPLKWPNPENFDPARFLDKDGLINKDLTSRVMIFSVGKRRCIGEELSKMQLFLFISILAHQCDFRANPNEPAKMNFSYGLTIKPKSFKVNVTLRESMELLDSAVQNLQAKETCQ
Sequence of UniProt P07099 (whole entry, looked up): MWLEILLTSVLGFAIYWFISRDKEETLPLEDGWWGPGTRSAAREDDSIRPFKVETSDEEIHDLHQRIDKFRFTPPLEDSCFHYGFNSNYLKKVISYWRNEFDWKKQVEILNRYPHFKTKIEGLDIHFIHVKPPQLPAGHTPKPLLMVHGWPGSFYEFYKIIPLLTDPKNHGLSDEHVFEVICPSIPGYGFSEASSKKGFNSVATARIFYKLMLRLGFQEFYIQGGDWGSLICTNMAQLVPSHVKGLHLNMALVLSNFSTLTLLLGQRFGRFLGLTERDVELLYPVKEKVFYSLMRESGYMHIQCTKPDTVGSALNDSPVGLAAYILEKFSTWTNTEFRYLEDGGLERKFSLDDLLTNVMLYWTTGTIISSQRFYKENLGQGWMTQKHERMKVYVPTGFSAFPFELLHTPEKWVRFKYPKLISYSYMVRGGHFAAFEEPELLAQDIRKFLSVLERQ
Sequence of UniProt P00761 (whole entry, looked up): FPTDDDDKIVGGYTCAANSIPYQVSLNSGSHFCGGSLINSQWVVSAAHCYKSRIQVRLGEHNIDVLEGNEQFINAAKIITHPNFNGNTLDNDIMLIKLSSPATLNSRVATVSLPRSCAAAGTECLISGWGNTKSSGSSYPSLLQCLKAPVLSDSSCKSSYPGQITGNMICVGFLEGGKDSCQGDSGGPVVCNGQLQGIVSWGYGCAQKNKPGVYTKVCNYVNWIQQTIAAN
Sequence of UniProt P35869 (whole entry, looked up): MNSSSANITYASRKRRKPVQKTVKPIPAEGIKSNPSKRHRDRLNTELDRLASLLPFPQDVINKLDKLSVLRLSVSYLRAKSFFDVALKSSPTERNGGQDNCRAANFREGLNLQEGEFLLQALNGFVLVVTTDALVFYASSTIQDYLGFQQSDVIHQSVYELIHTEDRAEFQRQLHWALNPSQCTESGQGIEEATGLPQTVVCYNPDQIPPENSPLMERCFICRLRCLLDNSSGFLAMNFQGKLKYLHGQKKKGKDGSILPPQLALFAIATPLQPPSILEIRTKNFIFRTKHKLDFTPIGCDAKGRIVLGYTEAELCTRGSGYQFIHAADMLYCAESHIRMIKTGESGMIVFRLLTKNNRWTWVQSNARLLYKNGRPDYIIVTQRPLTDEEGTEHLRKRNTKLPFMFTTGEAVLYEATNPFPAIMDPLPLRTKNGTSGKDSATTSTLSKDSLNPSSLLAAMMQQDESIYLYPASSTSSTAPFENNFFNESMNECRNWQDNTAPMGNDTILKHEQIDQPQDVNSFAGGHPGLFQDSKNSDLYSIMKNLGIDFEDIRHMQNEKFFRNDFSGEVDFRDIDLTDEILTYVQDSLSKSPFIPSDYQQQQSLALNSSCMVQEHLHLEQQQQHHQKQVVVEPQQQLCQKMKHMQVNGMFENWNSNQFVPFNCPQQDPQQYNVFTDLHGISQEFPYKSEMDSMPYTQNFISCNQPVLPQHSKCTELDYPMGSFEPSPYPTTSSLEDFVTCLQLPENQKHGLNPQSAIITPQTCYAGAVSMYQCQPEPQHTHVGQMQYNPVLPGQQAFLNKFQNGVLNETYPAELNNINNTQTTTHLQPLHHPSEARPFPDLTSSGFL
Sequence of UniProt P05181 (whole entry, looked up): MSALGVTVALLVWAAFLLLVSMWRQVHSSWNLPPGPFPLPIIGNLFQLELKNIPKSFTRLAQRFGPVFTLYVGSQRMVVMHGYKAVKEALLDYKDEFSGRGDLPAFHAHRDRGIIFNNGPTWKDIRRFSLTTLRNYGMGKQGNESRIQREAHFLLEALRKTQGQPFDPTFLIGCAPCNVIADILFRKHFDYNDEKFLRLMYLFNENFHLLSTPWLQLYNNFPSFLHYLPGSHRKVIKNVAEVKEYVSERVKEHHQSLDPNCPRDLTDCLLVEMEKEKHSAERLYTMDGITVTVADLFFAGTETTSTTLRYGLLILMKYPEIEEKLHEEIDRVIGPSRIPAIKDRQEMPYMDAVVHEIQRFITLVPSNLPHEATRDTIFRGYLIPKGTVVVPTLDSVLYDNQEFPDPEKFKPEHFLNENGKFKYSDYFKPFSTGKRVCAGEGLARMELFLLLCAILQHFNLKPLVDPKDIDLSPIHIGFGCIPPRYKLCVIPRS
Sequence of UniProt P00760 (whole entry, looked up): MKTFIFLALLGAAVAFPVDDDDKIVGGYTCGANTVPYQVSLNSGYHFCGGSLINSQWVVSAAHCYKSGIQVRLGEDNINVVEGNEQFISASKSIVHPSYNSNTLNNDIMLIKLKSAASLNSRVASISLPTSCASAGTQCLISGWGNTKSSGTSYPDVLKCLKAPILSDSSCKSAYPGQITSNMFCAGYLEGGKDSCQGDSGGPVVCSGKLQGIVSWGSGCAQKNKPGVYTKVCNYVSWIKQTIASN
Sequence of UniProt Q9Y6L6 (whole entry, looked up): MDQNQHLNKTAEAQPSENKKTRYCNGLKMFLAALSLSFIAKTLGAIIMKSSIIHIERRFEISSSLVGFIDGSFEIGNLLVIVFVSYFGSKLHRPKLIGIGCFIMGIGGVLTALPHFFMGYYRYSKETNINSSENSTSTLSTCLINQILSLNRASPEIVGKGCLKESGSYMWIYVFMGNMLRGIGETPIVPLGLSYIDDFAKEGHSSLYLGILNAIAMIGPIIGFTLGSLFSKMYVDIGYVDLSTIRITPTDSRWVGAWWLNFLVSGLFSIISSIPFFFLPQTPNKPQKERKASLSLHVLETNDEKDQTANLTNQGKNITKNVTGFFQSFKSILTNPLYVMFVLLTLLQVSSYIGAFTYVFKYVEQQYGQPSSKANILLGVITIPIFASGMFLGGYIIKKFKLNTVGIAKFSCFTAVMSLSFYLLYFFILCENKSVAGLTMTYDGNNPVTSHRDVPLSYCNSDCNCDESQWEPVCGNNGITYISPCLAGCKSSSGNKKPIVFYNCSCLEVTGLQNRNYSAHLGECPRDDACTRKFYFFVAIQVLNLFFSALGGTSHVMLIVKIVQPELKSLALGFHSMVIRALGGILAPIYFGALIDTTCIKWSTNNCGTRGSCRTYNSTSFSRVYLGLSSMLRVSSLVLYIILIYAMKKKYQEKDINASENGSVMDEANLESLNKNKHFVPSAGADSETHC

CSc1nc2cc(Cl)c(Oc3cccc(Cl)c3Cl)cc2[nH]1
inhibition (CYP2D6; inhibitor; human liver microsomes; 10 µM, pH 7.4, added: dextromethorphan): 4.19%

Nc1ncnc2c1nc(SCCNC(=S)Nc1ccc(-c3c4ccc(=O)cc-4oc4cc(O)ccc34)c(C(=O)O)c1)n2[C@@H]1O[C@@H]2COP(=O)(O)O[C@H]2[C@H]1O
Km (SLCO1B1 (Homo sapiens, UniProt Q9Y6L6); substrate; CHO cells; 10 min): 2.9 µM

Clc1ccc(-c2cc(Cl)c(Cl)c(Cl)c2)cc1
EC50 (Ahr; reporter gene, agonist; Hepa-1c1c7; 24 h): 32 ± 17.7 nM

CCCSc1ccc2nc(NC(=O)OC)[nH]c2c1
inhibition (CYP2D6; inhibitor; human liver microsomes; 10 µM, pH 7.4, added: dextromethorphan): < 0%

C#CCOc1ccccc1-c1ccccc1
Kd (CYP1B1; reverse type I spectral binding; pH 7.4): 114000 ± 16000 nM

Clc1cc(-c2cc(Cl)c(Cl)c(Cl)c2)cc(Cl)c1Cl
Ki (Ahr; binding, competitor; in vitro expressed receptor, added: [3H]TCDD): 33 nM

CCC[S+]([O-])c1ccc2[nH]c(NC(=O)OC)nc2c1 (centres unmarked)
inhibition (CYP2D6; inhibitor; human liver microsomes; 2 µM, pH 7.4, added: dextromethorphan): < 0%

CC[C@H](C)[C@H](NC(=O)CN)C(=O)N[C@@H](CCCNC(=N)N)C(=O)N[C@@H](CCCNC(=N)N)C(=O)N[C@@H](Cc1ccccc1)C(=O)N[C@@H](CC(C)C)C(=O)N[C@@H](CCCNC(=N)N)C(=O)N[C@]1(C)CCCCCCC=CCCC[C@@](C)(C(=O)N[C@@H](Cc2ccccc2)C(=O)N[C@@H](CCCNC(=N)N)C(N)=O)NC(=O)[C@H](CCCNC(=N)N)NC(=O)[C@H](C(C)C)NC(=O)[C@H](Cc2ccccc2)NC(=O)[C@H](CCCNC(=N)N)NC(=O)[C@H](CCCNC(=N)N)NC(=O)[C@H](C)NC1=O
remaining compound (Trypsin (Sus scrofa, UniProt P00761); UPLC; NH4HCO3 buffer 50 mM; concentration not given, 24 h, pH 7.8, 37 °C, added: Trypsin 0.2 U/mL): 70 to 80%

CC[N+]1=C(C=CC=CC=C2N(CCCCCC(=O)NCCN3C(=O)CC(SC[C@@H](NC(=O)[C@@H](CCCNC(=N)N)NC(=O)[C@@H](CCCNC(=N)N)NC(=O)[C@@H](CCCNC(=N)N)NC(=O)[C@@H](CCCNC(=N)N)NC(=O)[C@@H](CCCNC(=N)N)NC(=O)[C@@H](CCCNC(=N)N)NC(=O)[C@@H](CCCNC(=N)N)NC(=O)[C@@H](CCCNC(=N)N)NC(=O)[C@@H](CCCNC(=N)N)NC(=O)[C@H](CC(C)C)NC(=O)[C@H](CCCCN)NC(=O)[C@H](CC(C)C)NC(=O)[C@H](CCC(N)=O)NC(=O)[C@H](CC(C)C)NC(=O)[C@H](CCCNC(=N)N)NC(=O)CCCCCNC(=O)[C@@H](CCC(=O)O)NC(=O)[C@@H](CCC(=O)O)NC(=O)[C@@H](CCC(=O)O)NC(=O)[C@@H](CCC(=O)O)NC(=O)[C@@H](CCC(=O)O)NC(=O)[C@@H](CCC(=O)O)NC(=O)[C@@H](CCC(=O)O)NC(=O)[C@@H](CCC(=O)O)NC(=O)[C@H](N)CCC(=O)O)C(N)=O)C3=O)c3ccc(S(=O)(=O)O)cc3C2(C)C)C(C)(C)c2cc(S(=O)(=O)[O-])ccc21 (some centres unmarked)
cleavage (Serine protease 1 (PRSS1, Bos taurus, UniProt P00760); substrate cleavage, substrate, Tricine gel; 5 µM, 2 h, added: enzyme 50 nM): 93 ± 2.9%

O=S(=O)(O)Oc1ccc(-c2ccc(Cl)cc2)c(Cl)c1
Km (sulfatase, human liver microsomes; substrate; pH 7.4, 37 °C): 9.1 ± 2.2 µM

O=C1Nc2ccc(Cl)cc2[C@@](C#CC2CC2)(C(F)(F)F)O1
AUC(0-t) (Cytochrome P450 2B6 (CYP2B6, Homo sapiens, UniProt P20813); healthy human, plasma; oral, 50 mg, added: midazolam 2 mg, no ritlecitinib): 5560 ng·h/mL

O=S(=O)(O)Oc1cc(Cl)c(-c2cc(Cl)ccc2Cl)cc1Cl
Km (sulfatase, human liver microsomes; substrate; pH 7.4, 37 °C): 3.4 ± 0.4 µM

indolo[3,2-b]carbazole
EC50 (Ahr; reporter gene, activator; H1L7.5c3 (mouse); 6 h): 0.98 nM

CNC(=O)Oc1cc(C)c(SC)c(C)c1
inhibition (CYP2D6; inhibitor; human liver microsomes; 10 µM, pH 7.4, added: dextromethorphan): < 0%

Oc1cc(O)cc(/C=C/c2ccc(O)c(O)c2)c1
Km (UGT1A7 human; 4'-O-glucuronide formation, substrate; pH 7.4): 43.5 ± 8.1 µM

indolo[3,2-b]carbazole
EC50 (AHR (Homo sapiens, UniProt P35869)): 0.6 nM

C#CCOCc1ccc2ccccc2c1
Kd (CYP1B1; reverse type I spectral binding; pH 7.4): 100000 ± 17000 nM

O=C(O)COc1ccc(C(=O)c2cccs2)c(Cl)c1Cl
inhibition (CYP2C9, human; inhibitor, measured: 11-hydroxy-THC; human liver microsomes, six donors; 50 µM, with CYP3cide and benzylnirvanol, added: THC 2 µM): 65 to 78%

Oc1ccc(/C=C/c2cc(O)cc(O)c2)cc1
Km (UGT1A1 human recombinant; substrate, measured: 3-glucuronide; pH 7.4): 708 ± 87 µM

COCCOCCOc1ccnc(C2=N[C@@](C)(C(=O)[O-])CS2)c1O.[Na+]
Job's plot maximum mole fraction (Fe(III); Job's plot; pH 7.4, total 1.0 mM): 0.677

O=[N+]([O-])c1ccc(O)cc1
hydroxylation rate (Cytochrome P450 2E1 (CYP2E1, Homo sapiens, UniProt P05181); substrate; pooled human liver microsomes; 250 µM, pH 7.4, added enzyme to P450 ratio 0): 2.5 ± 0.4 min⁻¹

Clc1ccc(-c2ccc(Cl)c(Cl)c2)cc1Cl
Ki (Ahr; binding, competitor; in vitro expressed receptor, added: [3H]TCDD): 94 nM

C1CO1
Km (Epoxide hydrolase 1 (EPHX1, Homo sapiens, UniProt P07099); enzyme activity, substrate): 12700 µM

Repeated from above:
C#CCOCc1ccc2ccccc2c1
Kd (CYP1B1; reverse type I spectral binding; pH 7.4): 100000 ± 17000 nM

O=C(O)COc1ccc(C(=O)c2cccs2)c(Cl)c1Cl
inhibition (CYP2C9, human; inhibitor, measured: 11-hydroxy-THC; human liver microsomes, six donors; 50 µM, with CYP3cide and benzylnirvanol, added: THC 2 µM): 65 to 78%

O=S(=O)(O)Oc1ccc(-c2ccc(Cl)cc2)c(Cl)c1
Km (sulfatase, human liver microsomes; substrate; pH 7.4, 37 °C): 9.1 ± 2.2 µM
